Experimental data pooled from the literature.
Compare with care: the assays were run in different laboratories. Several values in a cell are separate wells, animals, samples, runs or records. ± marks the error that the study gave.

O=C(Nc1ccc([C@H]2[C@@H](F)[C@@H](F)C[C@@H](F)[C@H]2F)cc1)C1CC1 — hepatic clearance (liver microsome stability; rat liver microsomes; 1 µM): 0.9 L/h/kg
CCCC[C@H](NC(=O)CNC(=O)CNC(=O)[C@H](CCCCNC(=O)[C@H](CC(=O)O)NC(=O)C(C)c1ccc(CC(C)C)cc1)NC(=O)CN1CCN(CC(=O)O)CCN(CC(=O)O)CCN(CC(=O)O)CC1)C(=O)N[C@H]1CC(=O)NCCCC[C@@H](C(N)=O)NC(=O)[C@H](Cc2c[nH]c3ccccc23)NC(=O)[C@H](CCCNC(=N)N)NC(=O)[C@@H](Cc2ccccc2)NC(=O)[C@H](Cc2c[nH]cn2)NC1=O (stereo partly drawn) [lutetium-177 labelled] — tumour-to-tissue ratio (C57 mice, tumour; intravenous, 0.037 MBq, 24 h; reference: liver): 6.84
O=C(CN1CN(c2cccc(F)c2)C2(CCN(C(=O)c3cnc4[nH]ncc4c3)CC2)C1=O)NCC(F)(F)F — CLint (human liver microsomes): 32 µL/min/mg protein
COC(=O)[C@@]1(C(C)C)C=C(C(=O)Nc2cccc(C(=O)Nc3ccc(Nc4nccc(-c5cccnc5)n4)c(C)c3)c2)C(=O)CC1 — compound remaining (rat, plasma; 1 µM, 10 min): 97.4% and 101%
COc1cccc(OC)c1-c1cc(C(=O)NC2(C(=O)O)C3CC4CC(C3)CC2C4)nn1-c1ccc(C(=O)N(C)CCCN(C)C(=O)[C@H](CCCCNC(=O)[C@H](CC(C)C)NC(=O)C2OC2C(=O)O)NC(=O)CN2CCN(CC(=O)[O-])CCN(CC(=O)[O-])CCN(CC(=O)[O-])CC2)cc1C(C)C.[177Lu+3] (mixture of isomers) — tumour-to-kidney ratio (mouse, HT-29 xenograft; 72 h post injection, biodistribution; reference: tumour over kidney uptake): 0.6
O=C(NCc1cccc(Cl)c1)c1ccc([C@H]2[C@@H](F)[C@@H](F)C[C@@H](F)[C@H]2F)cc1 — hepatic clearance (liver microsome stability; dog liver microsomes; 1 µM): 0.9 L/h/kg
Cc1ncsc1-c1ccc(CNC(=O)[C@@H]2C[C@@H](O)CN2C(=O)[C@@H](NC(=O)COCC(C)(COCCOCCOCCNC(=O)C[C@@H]2N=C(c3ccc(Cl)cc3)c3c(sc(C)c3C)-n3c(C)nnc32)COCCOCCOCCNC(=O)C[C@@H]2N=C(c3ccc(Cl)cc3)c3c(sc(C)c3C)-n3c(C)nnc32)C(C)(C)C)cc1 — plasma concentration (male C57BL/6 mice, plasma; subcutaneous, 5 mg/kg, 15 min, sample diluted 20-fold): 0.683 µg/mL
C=CC(=O)Nc1cc(Nc2nccc(-c3cn(C)c4ccccc34)n2)c(OC)cc1N(C)CCNC — recovery (storage stability; human dried blood spots; 24 h, -80 °C, medium QC level): 96.1%
CC(C)CC(=O)Nc1ccc(C2CCCCC2)cc1 — hepatic clearance (liver microsome stability; mouse liver microsomes; 1 µM): 5.16 L/h/kg
CN1CCN(c2ccc3[nH]c(-c4ccc5[nH]c(-c6ccc(OCCCCNC(=O)c7cccc8c7C(=O)OC87c8ccc(N(C)C)cc8[Si](C)(C)c8cc(N(C)C)ccc87)cc6)nc5c4)nc3c2)CC1 — fluorescence quantum yield (PBS with 0.1% SDS): 0.59 ± 0.01
CC[C@H](C)[C@H](NC(=O)[C@@H](NC(=O)[C@H](CCCCN)NC(=O)[C@@H](NC(=O)[C@@H]1CCCN1[C@@H]1CN(C(=O)[C@@H](NC(=O)[C@@H](NC(=O)[C@@H](NC(=O)[C@@H](NC(=O)[C@@H](NC(=O)[C@@H](N)CCCCN)C(C)C)C(C)C)C(C)C)[C@@H](C)CC)[C@@H](C)O)CC[C@H]1NS(=O)(=O)c1ccc(C)cc1)[C@@H](C)O)C(C)C)C(=O)N[C@@H](CC(C)C)C(=O)N[C@@H](Cc1c[nH]cn1)C(N)=O — helix content (circular dichroism; methanol; 125 µM, 20 °C): 0%
F[C@@H]1[C@H](c2ccc(-c3cnc(N4CCOCC4)nc3)cc2)[C@H](F)[C@H](F)C[C@@H]1F — hepatic clearance (hepatocyte stability; cryopreserved human hepatocytes; 1 µM): 0.432 L/h/kg
C=C(NC(=O)c1csc(-c2nc3c(cc2O)-c2nc(cs2)C(=O)NC(C(C)O)C(=O)NC(=C(C)OC)c2nc(cs2)C(=O)NC2c4nc(cs4)C(=O)NC(COC(=O)c4c5c6c(cccc6n4O)COC(=O)C(OC4CC(C)(O)C(N(C)C)C(C)O4)C2OC5)c2nc-3cs2)n1)C(N)=O (stereo not drawn) — volume of distribution (Sprague-Dawley rat, male, plasma; intravenous infusion, 6 mg/kg single dose): 28.4 L/kg
O=C(Nc1cnccc1-c1ccc([18F])cc1)c1ccnc(NC(=O)C2CC2)c1 — mean SUV (ex vivo biodistribution, gamma counting; GSK-3β overexpressing transgenic mouse, late stage, cecum; intravenous, 120 min post-injection): 8.82
O=C(c1ccc([C@H]2[C@@H](F)[C@@H](F)C[C@@H](F)[C@H]2F)cc1)N1CCC(F)CC1 — hepatic clearance (liver microsome stability; rat liver microsomes; 1 µM): 2.1 L/h/kg
CCN(CC)c1ccc2c(c1)O[B-]1(c3ccccc3C#N)OC(=O)C(c3ccccc3)=N[N+]1=C2CC(C)C (stereo not drawn) — fluorescence lifetime (toluene): 2.97 ns
COc1cccc(OC)c1-c1cc(C(=O)NC2(C(=O)O)C3CC4CC(C3)CC2C4)nn1-c1ccc(C(=O)NCCNC(=O)[C@H](CCCCNC(=O)[C@H](CC(C)C)NC(=O)C2OC2C(=O)O)NC(=O)CN2CCN(CC(=O)[O-])CCN(CC(=O)[O-])CCN(CC(=O)[O-])CC2)cc1C(C)C.[177Lu+3] (mixture of isomers) — tissue uptake (mouse HT-29 xenograft, small intestine; 72 h post injection, biodistribution): 0.21 %ID/g
O=C(c1ccc([C@H]2[C@@H](F)[C@@H](F)C[C@@H](F)[C@H]2F)cc1)N1CCCC1 — hepatic clearance (hepatocyte stability; cryopreserved mouse hepatocytes; 1 µM): 4.86 L/h/kg

Some of these lines once more:
Cc1ncsc1-c1ccc(CNC(=O)[C@@H]2C[C@@H](O)CN2C(=O)[C@@H](NC(=O)COCC(C)(COCCOCCOCCNC(=O)C[C@@H]2N=C(c3ccc(Cl)cc3)c3c(sc(C)c3C)-n3c(C)nnc32)COCCOCCOCCNC(=O)C[C@@H]2N=C(c3ccc(Cl)cc3)c3c(sc(C)c3C)-n3c(C)nnc32)C(C)(C)C)cc1 — plasma concentration (male C57BL/6 mice, plasma; subcutaneous, 5 mg/kg, 15 min, sample diluted 20-fold): 0.683 µg/mL
C=CC(=O)Nc1cc(Nc2nccc(-c3cn(C)c4ccccc34)n2)c(OC)cc1N(C)CCNC — recovery (storage stability; human dried blood spots; 24 h, -80 °C, medium QC level): 96.1%
CC(C)CC(=O)Nc1ccc(C2CCCCC2)cc1 — hepatic clearance (liver microsome stability; mouse liver microsomes; 1 µM): 5.16 L/h/kg
